Measured values gathered from unrelated publications.
Lines come from different studies, so protocols differ. Numbers after ± are the reported error.
Histone acetyltransferase RTT109 with Vps75: Histone acetyltransferase RTT109, with Vps75 (Saccharomyces cerevisiae, UniProt Q07794)
Chain of UniProt Q07794 (whole entry, looked up): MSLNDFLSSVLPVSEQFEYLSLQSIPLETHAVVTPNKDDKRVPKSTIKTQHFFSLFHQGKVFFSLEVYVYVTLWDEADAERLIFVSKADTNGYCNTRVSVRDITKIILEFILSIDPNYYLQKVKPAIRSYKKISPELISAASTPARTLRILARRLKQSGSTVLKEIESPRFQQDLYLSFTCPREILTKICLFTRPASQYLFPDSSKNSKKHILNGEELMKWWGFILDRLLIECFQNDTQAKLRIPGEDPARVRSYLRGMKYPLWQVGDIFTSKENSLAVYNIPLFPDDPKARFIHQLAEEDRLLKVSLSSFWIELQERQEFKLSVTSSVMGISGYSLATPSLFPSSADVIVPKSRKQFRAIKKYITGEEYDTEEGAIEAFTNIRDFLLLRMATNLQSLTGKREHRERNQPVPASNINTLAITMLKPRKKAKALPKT
CTNNB1 with BCL9 HD2: Catenin beta-1, with BCL9 HD2 (CTNNB1, Homo sapiens, UniProt P35222)
Chain of UniProt P35222 (whole entry, looked up): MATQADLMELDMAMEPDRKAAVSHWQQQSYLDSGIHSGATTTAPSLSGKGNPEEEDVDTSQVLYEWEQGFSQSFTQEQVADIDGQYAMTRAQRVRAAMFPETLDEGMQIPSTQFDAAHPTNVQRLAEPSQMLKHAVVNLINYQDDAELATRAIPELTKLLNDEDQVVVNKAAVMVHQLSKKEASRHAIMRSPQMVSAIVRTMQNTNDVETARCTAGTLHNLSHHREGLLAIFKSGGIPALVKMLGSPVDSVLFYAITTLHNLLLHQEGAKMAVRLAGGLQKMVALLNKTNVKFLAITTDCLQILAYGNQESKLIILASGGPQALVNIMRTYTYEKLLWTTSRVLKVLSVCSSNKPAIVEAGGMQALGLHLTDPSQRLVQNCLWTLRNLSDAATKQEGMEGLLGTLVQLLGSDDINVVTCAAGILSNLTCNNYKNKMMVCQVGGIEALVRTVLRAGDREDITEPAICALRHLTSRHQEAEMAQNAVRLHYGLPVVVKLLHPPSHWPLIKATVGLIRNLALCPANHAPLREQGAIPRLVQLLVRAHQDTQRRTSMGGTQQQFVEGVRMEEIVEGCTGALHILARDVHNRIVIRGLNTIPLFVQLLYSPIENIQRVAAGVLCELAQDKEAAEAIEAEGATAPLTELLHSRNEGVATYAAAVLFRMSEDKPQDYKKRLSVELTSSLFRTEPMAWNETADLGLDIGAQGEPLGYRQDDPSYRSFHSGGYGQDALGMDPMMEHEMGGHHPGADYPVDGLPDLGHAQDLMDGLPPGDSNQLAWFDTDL
UCHL1: Ubiquitin carboxyl-terminal hydrolase isozyme L1 (UCHL1, Homo sapiens, UniProt P09936)
Chain of UniProt P09936 (whole entry, looked up): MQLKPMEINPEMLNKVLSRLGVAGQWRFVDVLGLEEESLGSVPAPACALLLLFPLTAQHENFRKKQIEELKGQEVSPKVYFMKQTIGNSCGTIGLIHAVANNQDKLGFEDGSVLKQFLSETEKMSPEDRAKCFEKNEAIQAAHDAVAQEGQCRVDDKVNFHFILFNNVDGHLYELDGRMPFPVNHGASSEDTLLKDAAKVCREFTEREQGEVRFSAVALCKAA
BRD4 BD1: Bromodomain-containing protein 4, BD1 (BRD4, Homo sapiens, UniProt O60885)
Chain of UniProt P49841 (whole entry, looked up): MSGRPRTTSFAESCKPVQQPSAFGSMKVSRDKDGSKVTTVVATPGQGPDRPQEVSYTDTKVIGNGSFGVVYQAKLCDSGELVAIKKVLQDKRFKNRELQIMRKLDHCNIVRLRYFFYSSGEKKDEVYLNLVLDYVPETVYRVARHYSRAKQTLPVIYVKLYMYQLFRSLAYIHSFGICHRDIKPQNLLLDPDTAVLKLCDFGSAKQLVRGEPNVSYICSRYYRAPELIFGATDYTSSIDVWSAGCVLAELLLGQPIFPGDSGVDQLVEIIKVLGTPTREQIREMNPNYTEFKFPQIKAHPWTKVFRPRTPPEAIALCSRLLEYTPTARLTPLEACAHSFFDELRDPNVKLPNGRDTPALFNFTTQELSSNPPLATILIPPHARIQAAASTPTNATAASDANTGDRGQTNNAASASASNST
Chain of UniProt Q16881 (whole entry, looked up): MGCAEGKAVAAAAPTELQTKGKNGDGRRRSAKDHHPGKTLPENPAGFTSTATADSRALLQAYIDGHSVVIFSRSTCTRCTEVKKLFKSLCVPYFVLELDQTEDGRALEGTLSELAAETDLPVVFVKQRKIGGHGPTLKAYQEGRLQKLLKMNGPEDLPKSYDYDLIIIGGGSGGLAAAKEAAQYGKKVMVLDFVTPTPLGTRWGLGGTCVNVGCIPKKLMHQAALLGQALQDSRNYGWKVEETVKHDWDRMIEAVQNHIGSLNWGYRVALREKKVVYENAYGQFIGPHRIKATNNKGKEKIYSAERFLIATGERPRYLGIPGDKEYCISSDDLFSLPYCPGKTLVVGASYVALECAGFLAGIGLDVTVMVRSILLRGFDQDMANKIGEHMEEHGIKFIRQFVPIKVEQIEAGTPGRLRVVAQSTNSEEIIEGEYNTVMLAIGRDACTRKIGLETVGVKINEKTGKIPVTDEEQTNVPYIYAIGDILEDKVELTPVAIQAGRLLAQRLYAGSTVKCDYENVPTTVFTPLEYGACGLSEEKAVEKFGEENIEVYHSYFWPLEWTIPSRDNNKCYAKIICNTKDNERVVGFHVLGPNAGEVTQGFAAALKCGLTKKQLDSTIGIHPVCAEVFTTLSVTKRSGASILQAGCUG
Chain of UniProt P16234 (whole entry, looked up): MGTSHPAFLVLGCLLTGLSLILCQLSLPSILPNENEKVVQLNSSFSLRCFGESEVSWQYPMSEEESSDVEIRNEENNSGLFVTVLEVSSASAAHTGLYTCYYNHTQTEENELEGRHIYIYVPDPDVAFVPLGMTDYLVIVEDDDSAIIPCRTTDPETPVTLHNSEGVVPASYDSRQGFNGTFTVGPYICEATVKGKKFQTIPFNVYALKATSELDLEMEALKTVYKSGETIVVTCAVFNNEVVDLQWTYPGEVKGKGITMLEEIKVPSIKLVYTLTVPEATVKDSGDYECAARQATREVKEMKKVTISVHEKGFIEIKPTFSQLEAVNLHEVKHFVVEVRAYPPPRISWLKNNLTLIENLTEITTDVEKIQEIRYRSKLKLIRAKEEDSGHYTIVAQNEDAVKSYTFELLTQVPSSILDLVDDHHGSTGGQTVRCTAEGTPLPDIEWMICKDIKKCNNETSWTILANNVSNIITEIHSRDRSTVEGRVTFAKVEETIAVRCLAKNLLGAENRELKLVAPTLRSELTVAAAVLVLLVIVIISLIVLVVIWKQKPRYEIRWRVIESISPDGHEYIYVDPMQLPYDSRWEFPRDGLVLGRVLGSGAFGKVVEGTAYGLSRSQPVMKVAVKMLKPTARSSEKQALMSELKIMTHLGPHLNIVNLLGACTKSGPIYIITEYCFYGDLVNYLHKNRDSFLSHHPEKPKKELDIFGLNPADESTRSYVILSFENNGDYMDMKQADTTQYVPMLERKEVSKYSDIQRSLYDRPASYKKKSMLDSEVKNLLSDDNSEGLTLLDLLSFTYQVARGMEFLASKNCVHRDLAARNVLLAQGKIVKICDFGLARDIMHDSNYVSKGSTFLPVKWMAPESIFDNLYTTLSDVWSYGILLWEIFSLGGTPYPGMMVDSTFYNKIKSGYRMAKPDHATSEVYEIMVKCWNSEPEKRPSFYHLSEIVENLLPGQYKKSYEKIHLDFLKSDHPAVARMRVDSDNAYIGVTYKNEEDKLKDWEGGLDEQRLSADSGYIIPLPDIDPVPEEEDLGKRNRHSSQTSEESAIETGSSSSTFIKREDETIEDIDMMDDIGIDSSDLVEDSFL
Chain of UniProt P00760 (whole entry, looked up): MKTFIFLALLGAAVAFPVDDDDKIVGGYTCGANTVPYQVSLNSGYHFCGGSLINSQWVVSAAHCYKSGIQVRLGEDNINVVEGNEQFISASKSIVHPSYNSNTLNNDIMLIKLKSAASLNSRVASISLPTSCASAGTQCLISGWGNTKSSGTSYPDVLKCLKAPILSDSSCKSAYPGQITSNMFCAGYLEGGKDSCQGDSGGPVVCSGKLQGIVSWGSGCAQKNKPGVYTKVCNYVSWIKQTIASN
Chain of UniProt Q8IXJ6 (whole entry, looked up): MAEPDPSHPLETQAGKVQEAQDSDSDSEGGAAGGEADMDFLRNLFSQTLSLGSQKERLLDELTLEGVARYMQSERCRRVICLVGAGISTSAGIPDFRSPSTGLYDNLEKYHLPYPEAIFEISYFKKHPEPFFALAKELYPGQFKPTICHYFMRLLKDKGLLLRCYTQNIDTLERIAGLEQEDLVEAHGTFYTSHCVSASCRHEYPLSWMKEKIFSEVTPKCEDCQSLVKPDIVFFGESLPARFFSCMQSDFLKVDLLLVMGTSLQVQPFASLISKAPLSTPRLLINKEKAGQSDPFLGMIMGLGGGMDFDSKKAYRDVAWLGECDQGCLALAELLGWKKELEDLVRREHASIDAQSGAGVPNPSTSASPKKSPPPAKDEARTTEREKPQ
Chain of UniProt P0DUB6 (whole entry, looked up): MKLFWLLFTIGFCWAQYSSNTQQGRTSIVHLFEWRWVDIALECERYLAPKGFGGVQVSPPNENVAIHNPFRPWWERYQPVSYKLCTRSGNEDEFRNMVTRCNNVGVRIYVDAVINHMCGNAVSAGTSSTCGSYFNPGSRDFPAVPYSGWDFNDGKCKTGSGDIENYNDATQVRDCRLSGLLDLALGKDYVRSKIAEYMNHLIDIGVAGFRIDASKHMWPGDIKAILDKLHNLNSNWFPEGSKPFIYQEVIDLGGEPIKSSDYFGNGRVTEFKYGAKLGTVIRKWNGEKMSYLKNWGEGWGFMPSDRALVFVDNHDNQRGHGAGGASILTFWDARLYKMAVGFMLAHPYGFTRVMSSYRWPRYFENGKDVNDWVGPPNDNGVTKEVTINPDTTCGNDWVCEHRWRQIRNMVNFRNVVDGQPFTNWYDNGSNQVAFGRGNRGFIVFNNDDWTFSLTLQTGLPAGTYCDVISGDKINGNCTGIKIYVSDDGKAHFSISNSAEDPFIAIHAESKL

SMILES | target | test | test system | setting | IC50 [µM]
O=c1nc(SCc2cc(F)cc(C(F)(F)F)c2)nc(SCc2ccc3sccc3c2)[nH]1 | TOP2A (Homo sapiens, UniProt P11388) | ATPase activity, ATP-competitive inhibitor | – | together with: ATP 2 mM | 8.6
C[C@@H]1O[C@@H](Oc2c(-c3ccc(O)c(O)c3)oc3cc(O)cc(O)c3c2=O)[C@H](O)[C@H](O)[C@H]1O | serine/threonine phosphatase Stp1 (Staphylococcus aureus, UniProt A0A0H2XF73) | phosphatase activity, inhibitor | – | – | > 223
N=C(SC1CC(=O)N(c2ccc(Br)cc2)C1=O)N1N=C(c2ccccc2)CC1c1ccccc1 (stereo not drawn) | Histone acetyltransferase RTT109 with Vps75 | enzyme activity, inhibitor, HTS, CPM-based, dose response | – | – | > 125
O=C(Cn1c2ccccc2c(=O)c2ccccc21)Nc1ccccc1Oc1ccccc1 | CTNNB1 with BCL9 HD2 | BCL9 binding, inhibitor, AlphaScreen | – | – | 26.4
CCCCCCCCCCCCNC(=S)NCCCC[C@H](NC(=O)OCc1ccccc1)C(=O)N[C@@H](Cc1c[nH]c2ccccc12)C(=O)N[C@@H](CCCCN)C(N)=O | SIRT2 (Homo sapiens, UniProt Q8IXJ6) | enzyme activity, inhibitor | – | – | 3.6 ± 0.6
N#CC(=Cc1cccc(Cl)c1Cl)C(=O)NCc1ccco1 | UCHL1 | inhibitor, ubiquitin-rhodamine cleavage | – | 2 h preincubation | > 200
O=C(Nc1cccnn1)N1CCC(=Cc2cccc(Oc3ccc(C(F)(F)F)cn3)c2)CC1 | Faah (Rattus norvegicus, UniProt P97612) | enzyme activity, inhibitor | rat brain membranes | 60 min preincubation | 0.002
NC1CS(=O)(=O)c2ccccc21 (stereo not drawn) | Histone acetyltransferase RTT109 with Vps75 | enzyme activity, inhibitor, HTS, CPM-based, dose response | – | – | > 125
Cc1ccc2[nH]nc(-c3nnc(Nc4cc(Cl)cc(Br)c4)s3)c2c1 | thymidine phosphorylase | enzyme activity, inhibitor, spectrophotometric | – | pH 7.5, 25 °C | 17 ± 1.33
CSc1ccccc1C(=O)NCCn1cc(C(=O)NCc2cccc(C)n2)c(=O)c2cc3c(cc21)OCO3 | Cytochrome P450 2C8 (CYP2C8, Homo sapiens, UniProt P10632) | enzyme activity, inhibitor | human liver microsomes | 20 min, 30 min NADPH preincubation, together with: amodiaquine 2 µM | > 100
COc1cc(N2CCN(C)CC2)ccc1Nc1ncc2c(n1)N(C)c1ccccc1C(=O)N2CC(F)(F)F | BRD4 BD1 | – | – | – | > 10
CN1CCN(c2ccc(Nc3ncc4cc(C#N)c(=O)n(C5CCCC5)c4n3)cc2)CC1 | GSK3B (Homo sapiens, UniProt P49841) | – | – | – | 1.68
O=C1[C@H]2CCCN2[C@H](c2cccc3c2OCO3)N1c1ccc(Cl)c(Cl)c1 (racemic) | mutant huntingtin exon 1 and calmodulin | protein binding, inhibitor, AlphaScreen | – | – | 4.3
O=C(Nc1ccc(Cl)cc1)c1ccc([N+](=O)[O-])o1 | TXNRD1 (Homo sapiens, UniProt Q16881) | enzyme activity, inhibitor | NCI-H23 cell lysate | – | 3.8
c1ccc(-c2noc(NCc3cccs3)n2)cc1 | Histone acetyltransferase RTT109 with Vps75 | enzyme activity, inhibitor, HTS, CPM-based, dose response | – | – | > 125
N=C(N)c1ccc(OCCCCCOc2ccc(C(=N)N)cc2)cc1 | Serine protease 1 (PRSS1, Bos taurus, UniProt P00760) | enzyme activity, inhibitor | – | – | 2.6 ± 0.4
C[C@@H]1O[C@H](CNS(=O)(=O)c2ccc(C#CC(C)(C)O)s2)[C@@H](O)[C@H](O)[C@@H]1O | fucose-binding lectin LecB (Pseudomonas aeruginosa, UniProt A0A0H2ZE85) | – | – | – | 0.31 ± 0.16
O=C1CC(S/C(=N\c2ccccc2)Nc2ccccc2)C(=O)N1c1ccc(Br)cc1 (stereo not drawn) | Histone acetyltransferase RTT109 with Vps75 | enzyme activity, inhibitor, HTS, CPM-based, dose response | – | – | > 125
Cc1cnc(-c2ccc(-c3ccc(NC(=O)Nc4c(F)cc(F)cc4F)cc3F)c3c2C(=O)NC3)[nH]1 | PDGFRA (Homo sapiens, UniProt P16234) | enzyme activity, inhibitor, mobility shift | – | together with: ATP 1 mM | 0.0258
OC[C@H]1O[C@@H](Oc2cc3c4c(c2)[C@@H]([C@@H]2c5cc(O)cc6c5[C@@H](c5cc(O)cc(O)c5[C@H]2c2ccc(O)cc2)[C@H](c2ccc(O)cc2)O6)[C@H](c2ccc(O)cc2)c2c(O)cc(O)cc2[C@H]4[C@H](c2ccc(O)cc2)O3)[C@H](O)[C@@H](O)[C@@H]1O | Alpha-amylase 1A (AMY1A, Homo sapiens, UniProt P0DUB6) | enzyme activity, inhibitor, HPAEC-PAD | – | together with: maltoheptaose substrate | > 100

SMILES | target | test | test system | setting | IC50 [µM]
O=C(CCCCCCC(=O)Nc1ccc(CCF)cc1)NO | HDAC7 (Homo sapiens, UniProt Q8WUI4) | – | – | – | 0.085
COc1cc2nccc(Oc3ccc(NC(=O)c4cc5c(n(-c6ccccc6)c4=O)CCCC5=O)nc3)c2cc1OC | MET (Homo sapiens, UniProt P08581) | cell viability, CellTiter-Glo | Ba/F3 expressing recombinant kinase | 48 h | > 0.1
COc1ccc(C)cc1CN1CCC(c2cc3ncccc3cn2)CC1 | CTNNB1 with BCL9 HD2 | BCL9 binding, inhibitor, AlphaScreen | – | – | 5.98
O=C(CCl)NC(=O)NCCc1cccs1 | UCHL1 | inhibitor, ubiquitin-rhodamine cleavage | – | 2 h preincubation | 77.4
O=C(O)/C=C/c1ccc(O)cc1 | ACE (Oryctolagus cuniculus, UniProt P12822) | enzyme activity, inhibitor | – | 2 h, pH 8.3, 37 °C, together with: hippuryl-histidyl-leucine | 559 ± 41.7
O=[N+]([O-])c1cccc(S(=O)(=O)Nc2ccc(O)c(Br)c2)c1 | Histone acetyltransferase RTT109 with Vps75 | enzyme activity, inhibitor, HTS, CPM-based, dose response | – | – | > 125
Cc1ccc2[nH]nc(-c3nnc(Nc4ccc(O)cc4)s3)c2c1 | thymidine phosphorylase | enzyme activity, inhibitor, spectrophotometric | – | pH 7.5, 25 °C | 9.91 ± 0.49
CN(C)C(=O)c1cc2cnc(Nc3ccc4c(=O)cc(N5CCNCC5)oc4c3)nc2n1C1CCCC1 | Bromodomain-containing protein 4, BD2 (BRD4, Homo sapiens, UniProt O60885) | inhibitor | – | – | 5.45
CC(C)(C)c1nsc(N)n1 | Histone acetyltransferase RTT109 with Vps75 | enzyme activity, inhibitor, HTS, CPM-based, dose response | – | – | > 125
CC[C@@H]1[C@H](F)C(=O)N[C@@H]1COc1nccc2cc(C(N)=O)c(OC)cc12 | STK38L (Homo sapiens, UniProt Q9Y2H1) | ATP-site probe binding, ActivX profiling | THP-1 cell lysate | Lys2 site | 1.5
Cc1c(-c2ccccc2)oc2ccccc2c1=O | Anoctamin-1 (Ano1, Mus musculus, UniProt Q8BHY3) | chloride current | HEK293 transfected | at +80 mV | 26.5
Cc1cc([C@@H](C)Nc2ccccc2C(=O)O)c2nc(N3CCCCC3)cc(=O)n2c1 | Phosphatidylinositol 4,5-bisphosphate 3-kinase catalytic subunit alpha isoform, with p85 alpha (PIK3CA, Homo sapiens, UniProt P42336, E542K) | ADP-Glo | – | together with: ATP 10 µM | > 10
Cc1c(N2CCOCC2)oc2c(-c3ccc(Nc4ncc5cc(C(=O)N(C)C)n(C6CCCC6)c5n4)cc3F)cccc2c1=O | BRD4 BD1 | inhibitor | – | – | > 10
O=S1(=O)C=C(Oc2ccc3ccccc3c2)c2ccccc21 | Histone acetyltransferase RTT109 with Vps75 | enzyme activity, inhibitor, HTS, CPM-based, dose response | – | – | > 125
COc1ccccc1CC(=N)N1C[C@@H]2C(=O)CCC(c3ccccc3)(c3ccccc3)[C@@H]2C1 | TACR1 (Homo sapiens, UniProt P25103) | intracellular calcium increase, antagonist | U373 MG | together with: substance P 100 nM | > 0.2
Cc1ccc(C(=O)Nc2ccc(S(=O)(=O)O)c3cc(S(=O)(=O)O)cc(S(=O)(=O)O)c23)cc1NC(=O)c1cccc(NC(=O)Nc2cccc(C(=O)Nc3cc(C(=O)Nc4ccc(S(=O)(=O)O)c5cc(S(=O)(=O)O)cc(S(=O)(=O)O)c45)ccc3C)c2)c1 | Uncharacterized protein (Trypanosoma brucei, UniProt Q38AT7) | – | – | – | 7
Cc1ccccc1NC(=O)C(C#N)=Cc1ccccc1Cl | UCHL1 | inhibitor, ubiquitin-rhodamine cleavage | – | 2 h preincubation | > 200
Cc1ccc(OCC(=O)Nc2ccc3c(c2)C(=O)NC3=O)cc1 | Glycogen synthase kinase-3 beta, with Nav1.6 (GSK3B, Homo sapiens, UniProt P49841) | Nav1.6-GSK3β assembly, inhibitor, split-luciferase complementation | HEK293 cells (transfected) | – | 50.1
CC(C)(/C=C(\C#N)C(=O)N1CCC[C@@H](n2nc(-c3ccc(Oc4ccccc4)cc3F)c3c(N)ncnc32)C1)N1CCN(C2COC2)CC1 | LYN (Homo sapiens, UniProt P07948) | – | – | – | 0.754

A few entries again:
SMILES | target | test | test system | setting | IC50 [µM]
O=C(CCCCCCC(=O)Nc1ccc(CCF)cc1)NO | HDAC7 (Homo sapiens, UniProt Q8WUI4) | – | – | – | 0.085
COc1cc2nccc(Oc3ccc(NC(=O)c4cc5c(n(-c6ccccc6)c4=O)CCCC5=O)nc3)c2cc1OC | MET (Homo sapiens, UniProt P08581) | cell viability, CellTiter-Glo | Ba/F3 expressing recombinant kinase | 48 h | > 0.1
COc1ccc(C)cc1CN1CCC(c2cc3ncccc3cn2)CC1 | CTNNB1 with BCL9 HD2 | BCL9 binding, inhibitor, AlphaScreen | – | – | 5.98
O=C(CCl)NC(=O)NCCc1cccs1 | UCHL1 | inhibitor, ubiquitin-rhodamine cleavage | – | 2 h preincubation | 77.4
O=C(O)/C=C/c1ccc(O)cc1 | ACE (Oryctolagus cuniculus, UniProt P12822) | enzyme activity, inhibitor | – | 2 h, pH 8.3, 37 °C, together with: hippuryl-histidyl-leucine | 559 ± 41.7
O=[N+]([O-])c1cccc(S(=O)(=O)Nc2ccc(O)c(Br)c2)c1 | Histone acetyltransferase RTT109 with Vps75 | enzyme activity, inhibitor, HTS, CPM-based, dose response | – | – | > 125
